Assay results from different studies.
Each numbered part is a random draw from the data of one study; scales do not carry over between parts.

Study 1 — method: protein-binding microarray; form: double-stranded DNA, one strand shown; matrix: in vitro; tested at: 2540 nM top; setting: 60-bp whole probe; with: salmon DNA 0.4 mg/ml; relative to: random background probes; reading: higher = stronger binding; endpoint: fitted relative affinity; shared flanks, not repeated: GCCTAGCAC … GTCTTGATTCGCTTGACGCTGCTG
Target: Interferon regulatory factor 3, full length, phosphomimetic (IRF3, Homo sapiens, UniProt Q14653, residues 1-427, S386D/S396D/S398D/S402D/T404D/S405D)
Target sequence (chain): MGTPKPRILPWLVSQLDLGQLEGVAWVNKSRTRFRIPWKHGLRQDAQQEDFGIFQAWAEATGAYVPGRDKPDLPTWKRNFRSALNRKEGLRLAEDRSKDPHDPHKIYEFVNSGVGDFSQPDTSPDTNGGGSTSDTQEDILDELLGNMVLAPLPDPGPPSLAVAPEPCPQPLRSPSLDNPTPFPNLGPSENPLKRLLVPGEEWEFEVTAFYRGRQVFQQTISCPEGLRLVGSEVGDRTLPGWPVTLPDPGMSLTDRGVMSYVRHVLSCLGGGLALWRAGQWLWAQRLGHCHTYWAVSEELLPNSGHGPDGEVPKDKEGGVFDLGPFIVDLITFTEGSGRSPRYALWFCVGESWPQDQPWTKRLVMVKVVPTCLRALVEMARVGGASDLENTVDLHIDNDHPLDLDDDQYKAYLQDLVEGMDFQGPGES
TTAGATTTCAGTTTCGAATAGTGCTAG: 5.24 z-score
TTAGGACTGGGTATCCGTTAGTGCTAG: 0.237 z-score
TTAGGTTTCGGAGTGGGTTAGTGCTAG: 4.73 z-score
TCACATTCACCTGTCGTACTGTGCTAG: 0.83 z-score
GACGATTTCGACTATCGGGACGTGCTA: 1.16 z-score
CTAGGACTGCTTATCCTTTAGTGCTAG: -0.104 z-score
TGAGATATCAGTCTCGATTAGTGCTAG: 1.11 z-score
TCAAGTCTCATATTTATACTGTGCTAG: 1.06 z-score
GACGCACTGGACTATCGGGACGTGCTA: -0.47 z-score

Study 2 — method: RNA Bind-n-Seq; form: RNA; matrix: in vitro; tested at: 1 µM; setting: whole 134-nt RNA, ends assumed; with: 150 mM KCl; relative to: input library; reading: higher = stronger binding; endpoint: log2 enrichment
Target: Ras GTPase-activating protein-binding protein 1, C-terminal RGG region (G3BP1, Homo sapiens, UniProt Q13283)
Chain of UniProt Q13283 (whole entry, looked up): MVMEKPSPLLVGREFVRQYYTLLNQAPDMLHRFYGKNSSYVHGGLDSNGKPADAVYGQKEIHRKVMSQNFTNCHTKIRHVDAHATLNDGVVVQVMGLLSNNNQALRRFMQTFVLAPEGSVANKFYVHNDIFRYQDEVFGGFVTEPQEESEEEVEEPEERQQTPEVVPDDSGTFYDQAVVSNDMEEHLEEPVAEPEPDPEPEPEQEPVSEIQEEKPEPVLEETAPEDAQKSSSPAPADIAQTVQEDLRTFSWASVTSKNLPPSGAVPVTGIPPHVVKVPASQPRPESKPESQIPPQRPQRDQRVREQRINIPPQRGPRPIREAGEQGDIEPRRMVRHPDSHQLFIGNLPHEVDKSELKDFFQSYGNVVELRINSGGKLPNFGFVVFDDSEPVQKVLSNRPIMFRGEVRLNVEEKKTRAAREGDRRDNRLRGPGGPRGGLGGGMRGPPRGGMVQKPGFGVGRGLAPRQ
Shared flanks, not repeated: GGGAGUUCUACAGUCCGACGAUC … UGGAAUUCUCGGGUGUCAAGG
ACCAUGCAGGUGGGCAUCUUUGGGAAGUGGGGCGAGGGGGGGAUAGGGAGGGGGGUAACACUUUGGGAACAGGUGGUCCCAGGUCGUUUC: -0.936
GUCCUGUGCUACACAUCGUAUGUACCGAAUCGGAAAAAGGAAAAAAAGGAAAAAAAGGAAAGUAUUAUGUUACGCCGUUCGGAUCUGCAC: -1.71
CUCAAGUCCUGUGCUACACAUCGUAUGUACCGAAUCGGGGCCGGCCGGGGCCGGAAAGUAUUAUGUUACGCCGUUCGGAUCUGCACUUCC: -1.21
UCCUGUGCUACACAUCGUAUGUACCGAAUCGGGGUUUUUUUGGGGAAAAAGGGGAGGGGAAAGUAUUAUGUUACGCCGUUCGGAUCUGCA: 1.54
AGUCCUGUGCUACACAUCGUAUGUACCGAAUCGGGGAAAAAAAGGGGAGGGGUGGGGAAAGUAUUAUGUUACGCCGUUCGGAUCUGCACU: 1.82
UGGGAGUUGGAUUUUGUUUAUUUUUUUAGCUCAUUUCCAGGGGUGGGAAUUUUUUUUUAAUAUGUGUCAUGAAUAAAGUUGUUUUUGAAA: 3.46

Study 3 — method: protein-binding microarray; form: double-stranded DNA, one strand shown; matrix: in vitro; tested at: 0.8 µM; setting: whole 60-bp probe, no competitor; reading: higher = stronger binding; endpoint: fluorescence intensity; shared flanks, not repeated: … GTCTTGATTCGCTTGACGCTGCTG
Target: Centromere-binding protein 1, full length, N-terminal tag (CBF1, Saccharomyces cerevisiae, UniProt P17106, residues 1-351)
Chain of UniProt P17106 (whole entry, looked up): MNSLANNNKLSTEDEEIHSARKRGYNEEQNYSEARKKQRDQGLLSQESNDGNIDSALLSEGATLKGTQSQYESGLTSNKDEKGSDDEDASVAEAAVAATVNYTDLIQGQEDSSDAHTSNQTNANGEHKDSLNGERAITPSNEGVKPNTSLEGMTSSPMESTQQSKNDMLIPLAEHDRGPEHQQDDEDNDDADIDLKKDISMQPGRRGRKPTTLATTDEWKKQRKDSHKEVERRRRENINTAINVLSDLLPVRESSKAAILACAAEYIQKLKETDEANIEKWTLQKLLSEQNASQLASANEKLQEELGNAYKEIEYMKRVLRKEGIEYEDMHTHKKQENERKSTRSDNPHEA
CTATAATAAAATCATCACCTCCGTTGCCTTTAGTTC: 531 a.u.
GAATGCATAAATATTCACATGGCGGAGATCATGTAG: 674 a.u.
CTAGGAAAAAGATACCACGTTCTTCTGAACATGTTC: 655 a.u.
CTATCTTCCAGCTTAAACGTGCTTCGTCACTCGTTC: 607 a.u.
CCTAACTACTATACAAGTGTGACATAGCTTCGTACA: 573 a.u.
GAATCCAAACCGTGGGAGGTGACGTTTCGGCACTAG: 484 a.u.
GAACTTCTTTTTCGGCATGTGATAATATACTGGTAG: 2090 a.u.
CTAGCTGAATTGCTAATCGTGATACTGCATCATTTC: 536 a.u.
GAAGTGGGTGTGGGTGTGGTGTGGGTGTGGTGGTAG: 560 a.u.

Further values, each from its own experiment
PhoQ, residues 284 288 289 292 302 303 TNSAEL — fold induction (PhoP, residues 12 14 15 18 19 QYCSL (Escherichia coli, UniProt P23836); Sort-seq, refers to: YFP reporter; E. coli; PhoQ-PhoP variant library, with: 10 µM Mg2+; relative to: high Mg2+ state, higher = stronger signaling): 6.81
